# Measured values collected from several papers.
# Numbers after ± are the reported error.
SMILES,test system,setting,half-life
C=C(NC(=O)c1csc(-c2nc3c(cc2O)-c2nc(cs2)C(=O)NC(C(C)O)C(=O)NC(=C(C)OC)c2nc(cs2)C(=O)NC2c4nc(cs4)C(=O)NC(COC(=O)c4c5c6c(cccc6n4O)COC(=O)C(OC4CC(C)(O)C(N(C)C)C(C)O4)C2OC5)c2nc-3cs2)n1)C(N)=O (centres unmarked),"ICR mice, Streptococcus pneumoniae ATCC 49169 infected, immunocompromised, blood","intravenous, 32 mg/kg/day once daily",5.91 h
Nc1nonc1-c1nnc2c(n1)-c1ccccc1C2=O,"ICR mice, plasma","intraperitoneal, 30 mg/kg",0.84 ± 0.01 h
O=C(NCCN1C(=O)C=CC1=O)[O][Pt-2]12([O]C(=O)NCCN3C(=O)C=CC3=O)([NH2+][C@@H]3CCCC[C@H]3[NH2+]1)[O]C(=O)C(=O)[O]2,"BALB/c mice, serum","intravenous, equimolar to 9 mg/kg oxaliplatin",55.7 h
O=C1C2CC3CC1CC(C(=O)N1CCN(c4ccc([N+](=O)[O-])c5ncccc45)CC1)(C3)C2,"ICR mice male, plasma","oral, 5 mg/kg",1.37 h
CC[C@H](C)[C@H](NC(=O)[C@H](Cc1ccccc1)NC(=O)[C@H](CCC(=O)O)NC(=O)[C@H](CCCCN)NC(=O)[C@H](C)NC(=O)[C@H](C)NC(=O)[C@H](CCC(N)=O)NC(=O)CNC(=O)[C@H](CCC(=O)O)NC(=O)[C@H](CC(C)C)NC(=O)[C@H](Cc1ccc(O)cc1)NC(=O)[C@H](CO)NC(=O)[C@H](CO)NC(=O)[C@@H](NC(=O)[C@H](CC(=O)O)NC(=O)[C@H](CO)NC(=O)[C@@H](NC(=O)[C@H](Cc1ccccc1)NC(=O)[C@@H](NC(=O)CNC(=O)[C@H](CCC(=O)O)NC(=O)[C@H](C)NC(=O)[C@@H](N)Cc1c[nH]cn1)[C@@H](C)O)[C@@H](C)O)C(C)C)C(=O)N[C@@H](C)C(=O)N[C@@H](Cc1c[nH]c2ccccc12)C(=O)N[C@@H](CC(C)C)C(=O)N[C@H](C(=O)N[C@@H](CCCNC(=N)N)C(=O)NCC(=O)N[C@@H](CCCNC(=N)N)C(=O)NCC(=O)O)C(C)C,"male ICR mice, plasma","intravenous, 1 mg/kg",0.08 h
COc1cccc2c(N3CCC(CCP(=O)(O)O)CC3)ncnc12,"C57BL/6 mice, female, cerebrospinal fluid","subcutaneous, 50 mg/kg",5 h
COC1CN([C@H]2CC[C@H]([C@@]3(C)Oc4c(Cl)cc(C(=O)NCc5c(SC)cc(C)[nH]c5=O)c(C)c4O3)CC2)C1,"female CB17 SCID mice, KARPAS-422 xenograft, plasma","25 mg/kg, day 12",1.67 h
O=C(NCCN1C(=O)CCC1=O)[O][Pt]12([O]C(=O)NCCN3C(=O)CCC3=O)([NH][C@@H]3CCCC[C@H]3[NH]1)[O]C(=O)C(=O)[O]2,"BALB/c mice, serum","intravenous, equimolar to 9 mg/kg oxaliplatin",25.7 h

# For quick reference, copied from above:
SMILES,test system,setting,half-life
COC1CN([C@H]2CC[C@H]([C@@]3(C)Oc4c(Cl)cc(C(=O)NCc5c(SC)cc(C)[nH]c5=O)c(C)c4O3)CC2)C1,"female CB17 SCID mice, KARPAS-422 xenograft, plasma","25 mg/kg, day 12",1.67 h
